# Published values of several laboratories.
# The chains behind the UniProt entries cited, without tags or fusion partners. Residues count along the entry.
# UniProt P46934, whole entry, looked up: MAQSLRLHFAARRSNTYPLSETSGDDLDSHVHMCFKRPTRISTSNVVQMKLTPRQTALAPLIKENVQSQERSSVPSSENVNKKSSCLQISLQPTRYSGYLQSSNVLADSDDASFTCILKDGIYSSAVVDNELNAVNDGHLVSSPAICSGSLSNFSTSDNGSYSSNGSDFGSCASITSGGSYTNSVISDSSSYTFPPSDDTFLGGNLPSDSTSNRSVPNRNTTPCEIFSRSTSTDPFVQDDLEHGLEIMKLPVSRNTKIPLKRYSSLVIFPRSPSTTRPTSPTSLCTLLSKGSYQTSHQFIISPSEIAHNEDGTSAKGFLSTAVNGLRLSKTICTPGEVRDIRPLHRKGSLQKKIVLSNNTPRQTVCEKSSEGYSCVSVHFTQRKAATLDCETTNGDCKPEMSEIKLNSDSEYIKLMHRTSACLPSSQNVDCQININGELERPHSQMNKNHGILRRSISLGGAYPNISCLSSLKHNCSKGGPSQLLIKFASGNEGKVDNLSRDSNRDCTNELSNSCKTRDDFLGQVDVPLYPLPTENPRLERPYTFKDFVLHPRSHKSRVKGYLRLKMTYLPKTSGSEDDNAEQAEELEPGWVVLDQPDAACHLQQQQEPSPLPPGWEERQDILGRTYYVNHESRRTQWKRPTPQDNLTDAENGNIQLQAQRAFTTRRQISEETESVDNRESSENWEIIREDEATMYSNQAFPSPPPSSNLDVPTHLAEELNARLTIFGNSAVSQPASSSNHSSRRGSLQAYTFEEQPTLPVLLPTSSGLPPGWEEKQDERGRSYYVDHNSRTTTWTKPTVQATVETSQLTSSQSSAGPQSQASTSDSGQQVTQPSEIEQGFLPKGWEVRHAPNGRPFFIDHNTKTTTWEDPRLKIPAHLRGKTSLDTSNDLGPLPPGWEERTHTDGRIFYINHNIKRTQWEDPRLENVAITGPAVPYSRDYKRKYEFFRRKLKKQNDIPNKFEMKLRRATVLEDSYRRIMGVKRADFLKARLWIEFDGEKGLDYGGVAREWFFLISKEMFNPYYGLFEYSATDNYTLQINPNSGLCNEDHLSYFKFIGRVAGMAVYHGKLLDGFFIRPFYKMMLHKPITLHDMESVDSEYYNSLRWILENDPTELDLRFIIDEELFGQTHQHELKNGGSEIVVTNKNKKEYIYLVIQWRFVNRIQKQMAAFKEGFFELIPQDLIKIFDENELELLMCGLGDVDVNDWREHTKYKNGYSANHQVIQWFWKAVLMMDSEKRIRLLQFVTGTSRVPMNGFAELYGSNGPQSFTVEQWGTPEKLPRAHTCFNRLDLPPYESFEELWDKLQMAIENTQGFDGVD
# UniProt Q14833, 33-912 limits assumed: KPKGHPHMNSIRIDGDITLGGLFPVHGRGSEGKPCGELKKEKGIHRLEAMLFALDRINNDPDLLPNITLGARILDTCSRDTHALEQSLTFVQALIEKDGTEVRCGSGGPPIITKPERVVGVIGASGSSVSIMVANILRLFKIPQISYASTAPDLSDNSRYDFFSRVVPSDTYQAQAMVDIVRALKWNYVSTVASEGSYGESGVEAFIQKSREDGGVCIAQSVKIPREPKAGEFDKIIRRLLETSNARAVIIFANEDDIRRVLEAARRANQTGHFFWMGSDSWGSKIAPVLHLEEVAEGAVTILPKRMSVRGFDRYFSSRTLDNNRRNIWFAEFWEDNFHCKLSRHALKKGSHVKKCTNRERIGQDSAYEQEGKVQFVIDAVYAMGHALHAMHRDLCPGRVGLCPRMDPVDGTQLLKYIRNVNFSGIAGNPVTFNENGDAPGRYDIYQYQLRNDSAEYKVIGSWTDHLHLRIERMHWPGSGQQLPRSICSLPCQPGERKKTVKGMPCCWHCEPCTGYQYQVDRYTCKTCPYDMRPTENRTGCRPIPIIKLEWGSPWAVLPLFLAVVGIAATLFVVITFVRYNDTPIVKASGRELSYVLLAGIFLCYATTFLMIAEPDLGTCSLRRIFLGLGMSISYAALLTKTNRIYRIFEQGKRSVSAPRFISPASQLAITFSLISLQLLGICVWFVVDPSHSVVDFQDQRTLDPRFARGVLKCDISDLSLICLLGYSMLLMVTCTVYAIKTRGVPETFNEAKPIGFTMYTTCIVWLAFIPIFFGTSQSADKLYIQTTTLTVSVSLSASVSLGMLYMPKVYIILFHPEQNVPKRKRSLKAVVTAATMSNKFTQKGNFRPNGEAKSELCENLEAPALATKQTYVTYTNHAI
# UniProt P45983, 1-384 isoform 3: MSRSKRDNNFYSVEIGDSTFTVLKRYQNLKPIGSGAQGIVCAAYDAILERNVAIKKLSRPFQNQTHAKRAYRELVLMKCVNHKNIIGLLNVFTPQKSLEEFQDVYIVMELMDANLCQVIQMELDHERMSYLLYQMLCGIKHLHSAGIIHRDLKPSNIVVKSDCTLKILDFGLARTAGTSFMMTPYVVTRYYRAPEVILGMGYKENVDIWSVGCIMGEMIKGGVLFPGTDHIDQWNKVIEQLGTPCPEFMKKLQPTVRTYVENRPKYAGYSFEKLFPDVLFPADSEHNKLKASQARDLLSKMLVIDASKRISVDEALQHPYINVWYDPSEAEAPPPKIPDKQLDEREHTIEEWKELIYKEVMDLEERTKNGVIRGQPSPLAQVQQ
# UniProt P45983, 1-384 isoform 3 C116S: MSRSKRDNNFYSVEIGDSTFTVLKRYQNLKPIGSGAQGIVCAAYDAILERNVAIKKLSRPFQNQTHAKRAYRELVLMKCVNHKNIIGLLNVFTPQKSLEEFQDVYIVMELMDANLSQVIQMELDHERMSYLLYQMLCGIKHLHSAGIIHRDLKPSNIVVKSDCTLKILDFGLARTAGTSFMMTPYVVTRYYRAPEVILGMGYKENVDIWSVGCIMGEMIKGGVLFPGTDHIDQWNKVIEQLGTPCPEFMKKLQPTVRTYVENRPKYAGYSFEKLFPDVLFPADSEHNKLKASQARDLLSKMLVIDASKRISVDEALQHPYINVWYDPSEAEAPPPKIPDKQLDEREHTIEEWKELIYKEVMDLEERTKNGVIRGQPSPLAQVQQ
# UniProt P31421, 19-872 limits assumed: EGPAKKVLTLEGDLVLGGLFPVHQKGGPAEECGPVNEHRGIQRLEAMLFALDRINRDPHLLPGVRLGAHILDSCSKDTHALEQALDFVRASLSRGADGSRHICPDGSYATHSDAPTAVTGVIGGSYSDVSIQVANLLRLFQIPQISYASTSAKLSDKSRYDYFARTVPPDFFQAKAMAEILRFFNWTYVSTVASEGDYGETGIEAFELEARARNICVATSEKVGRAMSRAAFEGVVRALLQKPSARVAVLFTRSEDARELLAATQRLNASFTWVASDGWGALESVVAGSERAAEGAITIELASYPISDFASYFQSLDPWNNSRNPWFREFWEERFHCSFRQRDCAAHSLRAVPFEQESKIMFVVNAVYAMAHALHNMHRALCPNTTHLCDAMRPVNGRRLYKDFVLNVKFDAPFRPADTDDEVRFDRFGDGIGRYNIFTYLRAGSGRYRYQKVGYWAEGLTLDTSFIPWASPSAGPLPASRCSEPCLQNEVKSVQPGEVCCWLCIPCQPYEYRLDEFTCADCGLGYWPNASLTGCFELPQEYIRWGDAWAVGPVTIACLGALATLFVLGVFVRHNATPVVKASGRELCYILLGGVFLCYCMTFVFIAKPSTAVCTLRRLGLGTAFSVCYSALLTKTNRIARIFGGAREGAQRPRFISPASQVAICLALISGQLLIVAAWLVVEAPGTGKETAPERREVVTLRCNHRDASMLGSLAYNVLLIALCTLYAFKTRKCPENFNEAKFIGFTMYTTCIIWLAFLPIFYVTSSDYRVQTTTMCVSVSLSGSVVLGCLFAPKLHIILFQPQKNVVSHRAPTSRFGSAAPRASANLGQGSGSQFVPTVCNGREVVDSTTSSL
# UniProt P05067, 672-713 limits assumed: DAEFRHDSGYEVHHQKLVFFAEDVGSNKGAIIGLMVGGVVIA
# UniProt P05067, whole entry, looked up: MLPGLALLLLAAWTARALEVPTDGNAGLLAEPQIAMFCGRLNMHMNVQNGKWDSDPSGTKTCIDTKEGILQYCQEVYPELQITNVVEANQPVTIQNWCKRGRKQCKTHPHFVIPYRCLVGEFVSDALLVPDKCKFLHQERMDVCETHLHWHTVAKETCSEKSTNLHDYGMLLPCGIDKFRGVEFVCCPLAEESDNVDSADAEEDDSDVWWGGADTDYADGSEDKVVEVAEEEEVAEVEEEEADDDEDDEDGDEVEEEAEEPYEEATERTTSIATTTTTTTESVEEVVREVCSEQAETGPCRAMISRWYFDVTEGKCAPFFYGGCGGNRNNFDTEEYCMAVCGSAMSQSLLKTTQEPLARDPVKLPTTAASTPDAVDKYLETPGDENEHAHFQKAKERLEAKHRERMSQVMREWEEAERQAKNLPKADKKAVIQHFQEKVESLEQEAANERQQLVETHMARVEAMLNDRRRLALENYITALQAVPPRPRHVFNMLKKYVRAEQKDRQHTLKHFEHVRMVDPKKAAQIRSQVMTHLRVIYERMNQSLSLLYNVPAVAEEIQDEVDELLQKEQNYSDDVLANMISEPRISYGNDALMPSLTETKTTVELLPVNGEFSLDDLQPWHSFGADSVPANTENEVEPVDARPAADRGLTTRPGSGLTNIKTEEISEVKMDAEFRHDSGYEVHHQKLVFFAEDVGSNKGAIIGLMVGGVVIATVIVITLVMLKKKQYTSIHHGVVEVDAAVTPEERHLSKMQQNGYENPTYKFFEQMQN
# UniProt Q9GZT9, whole entry: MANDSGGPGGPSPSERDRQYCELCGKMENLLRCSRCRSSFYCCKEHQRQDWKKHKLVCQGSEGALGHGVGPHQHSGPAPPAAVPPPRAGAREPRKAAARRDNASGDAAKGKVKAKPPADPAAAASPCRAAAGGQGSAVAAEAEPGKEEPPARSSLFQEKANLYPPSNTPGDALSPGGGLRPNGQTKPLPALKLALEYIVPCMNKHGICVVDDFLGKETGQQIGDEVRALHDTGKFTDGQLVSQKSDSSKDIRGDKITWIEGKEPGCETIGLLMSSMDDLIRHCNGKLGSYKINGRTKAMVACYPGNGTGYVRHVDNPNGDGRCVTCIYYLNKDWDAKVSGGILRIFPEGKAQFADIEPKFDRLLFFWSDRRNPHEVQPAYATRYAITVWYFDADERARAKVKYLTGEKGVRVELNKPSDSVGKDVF
# UniProt Q99797, 36-713 limits assumed: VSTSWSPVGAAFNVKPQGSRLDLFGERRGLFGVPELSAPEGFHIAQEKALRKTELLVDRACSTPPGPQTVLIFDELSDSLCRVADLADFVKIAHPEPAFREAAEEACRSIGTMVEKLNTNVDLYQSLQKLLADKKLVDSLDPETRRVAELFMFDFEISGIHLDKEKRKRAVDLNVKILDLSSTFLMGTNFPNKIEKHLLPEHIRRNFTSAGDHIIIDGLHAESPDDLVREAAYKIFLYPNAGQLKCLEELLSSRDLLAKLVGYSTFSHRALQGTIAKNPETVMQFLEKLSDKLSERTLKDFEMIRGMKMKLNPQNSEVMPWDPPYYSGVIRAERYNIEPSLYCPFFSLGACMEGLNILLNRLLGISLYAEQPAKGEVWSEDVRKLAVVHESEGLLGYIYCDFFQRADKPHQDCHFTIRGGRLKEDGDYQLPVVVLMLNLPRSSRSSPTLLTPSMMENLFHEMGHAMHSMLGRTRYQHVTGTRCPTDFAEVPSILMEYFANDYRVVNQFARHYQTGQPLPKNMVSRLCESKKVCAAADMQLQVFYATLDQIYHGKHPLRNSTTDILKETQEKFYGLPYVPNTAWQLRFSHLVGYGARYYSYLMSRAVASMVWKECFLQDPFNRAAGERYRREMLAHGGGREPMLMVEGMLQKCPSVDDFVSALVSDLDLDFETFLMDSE
# UniProt P22455, 467-755 limits assumed: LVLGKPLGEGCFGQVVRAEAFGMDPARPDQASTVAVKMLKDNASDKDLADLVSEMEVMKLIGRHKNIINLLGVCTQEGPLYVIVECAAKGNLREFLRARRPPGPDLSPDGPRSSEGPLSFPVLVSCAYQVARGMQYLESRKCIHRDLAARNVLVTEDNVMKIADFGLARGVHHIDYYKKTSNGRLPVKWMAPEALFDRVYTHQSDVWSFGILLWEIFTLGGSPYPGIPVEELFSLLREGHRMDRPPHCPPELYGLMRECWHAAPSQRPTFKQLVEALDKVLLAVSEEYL
# UniProt Q96SW2, whole entry: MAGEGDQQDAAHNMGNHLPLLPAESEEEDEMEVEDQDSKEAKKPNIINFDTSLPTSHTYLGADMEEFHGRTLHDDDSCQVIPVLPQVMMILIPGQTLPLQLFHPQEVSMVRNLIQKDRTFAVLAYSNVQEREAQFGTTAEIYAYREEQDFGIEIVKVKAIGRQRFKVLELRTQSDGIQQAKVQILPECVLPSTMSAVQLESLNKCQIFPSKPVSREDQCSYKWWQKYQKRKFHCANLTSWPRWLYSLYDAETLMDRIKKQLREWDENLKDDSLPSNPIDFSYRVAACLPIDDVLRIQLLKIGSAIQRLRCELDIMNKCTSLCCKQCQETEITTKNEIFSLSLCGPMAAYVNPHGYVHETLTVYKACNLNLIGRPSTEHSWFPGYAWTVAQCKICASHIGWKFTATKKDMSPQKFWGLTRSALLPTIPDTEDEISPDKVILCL
# Compare with care: the assays were run in different laboratories. Several values in a cell are separate wells, animals, samples, runs or records. ± gives the spread as reported.
# RPA1 N-terminal domain: Replication protein A 70 kDa DNA-binding subunit, N-terminal domain (RPA1, Homo sapiens, UniProt P27694)
# LYPLAL1: Lysophospholipase-like protein 1 (LYPLAL1, Homo sapiens, UniProt Q5VWZ2)
# E3 ubiquitin-protein ligase NEDD4: E3 ubiquitin-protein ligase NEDD4 (Homo sapiens, UniProt P46934)
# GRM4: Metabotropic glutamate receptor 4 (GRM4, Homo sapiens, UniProt Q14833)
# MAPK8: Mitogen-activated protein kinase 8 (MAPK8, Homo sapiens, UniProt P45983)
# GLP1R: Glucagon-like peptide 1 receptor (GLP1R, Homo sapiens, UniProt P43220)
# Grm2: Metabotropic glutamate receptor 2 (Grm2, Rattus norvegicus, UniProt P31421)
SMILES,target,test,system,conditions,scale,quantity,value
Cc1ccc(C(=O)Nc2cc(Cl)ccc2C(=O)O)cc1S(=O)(=O)Nc1ccc(Br)cc1,RPA1 N-terminal domain,"binding, fluorescence polarisation competition",,added: FITC-ATRIP probe,,ligand efficiency,0.21
O=C(OC(C(F)(F)F)C(F)(F)F)N1Cc2ccc(Br)cc2C1,"FAAH (Homo sapiens, UniProt O00519)","enzyme activity, inhibitor, fluorescence AAMCA substrate",,1 µM,,activity,inactive
Nc1nc(SCc2ccc(Cl)cc2)nn1S(=O)(=O)c1ccc2c(c1)CCC2,LYPLAL1,"activator, gel-based ABPP",purified protein,,relative to: DMSO,FP-rhodamine labelling,2.2 fold
O=C(O)CCC(C(=O)/C=C/c1ccc(O)c(OC(F)(F)F)c1)C(=O)/C=C/c1ccc(O)c(OC(F)(F)F)c1,"APP (Homo sapiens, UniProt P05067)","SDS-PAGE western blot, refers to: Aβ1-42 species 75-200 kDa",,"30 µM, 24 h, 37 °C, added: Aβ 10 µM",relative to: DMSO control,Aβ band density,200 ± 52%
Nc1nc(SCc2ccc(Cl)cc2)nn1S(=O)(=O)c1cccc2c1CCCC2,LYPLAL1,"activator, gel-based ABPP",purified protein,,relative to: DMSO,FP-rhodamine labelling,2.4 fold
O=C(O)c1ccnc(C(=O)O)c1Nc1ccc([N+](=O)[O-])cc1,"Egl nine homolog 1 (EGLN1, Homo sapiens, UniProt Q9GZT9)","inhibitor, HTRF",,400 µM,,remaining activity,100%
CCOC(=O)/C=C/CNCCCN1c2ccccc2CCc2ccccc21,E3 ubiquitin-protein ligase NEDD4,"inhibitor, Ub-TR-FRET",,"0.1372 µM, 1 h preincubation, HECT domain, added: ATP 2 mM",higher = more ubiquitination,ubiquitination TR-FRET signal AUC,121000 a.u. and 129000 a.u. and 128000 a.u.
O=C(NC1CCCCC1)C12CC1/C(=N\O)c1ccccc1O2 (centres unmarked),GRM4,"positive allosteric modulator, calcium mobilization",CHO expressing Gqi5,"concentration not given, added: glutamate EC20",relative to: glutamate 1 mM,response,124 ± 1.6%
Cc1cc(NC(=O)c2cccc(NC(=O)C3=CC(C)(C)CC3=O)c2)ccc1Nc1nccc(-c2cccnc2)n1,MAPK8,"kinase activity, inhibitor",,"0.02032 µM, unit not given, added: 10 mM GSH",relative to: DMSO,remaining activity,0.892
CCOc1ccc(C(=O)C2=C(O)C(=O)N(CCN(C)C)C2c2cc(OC)ccc2OC)cc1 (centres unmarked),"FPR1 (Homo sapiens, UniProt P21462)","fMLF-induced calcium mobilization, antagonist",HL-60 expressing FPR1,concentration not given,,antagonist activity,inactive
COCCOCCOCCOC(=O)C(C#N)=Cc1ccc(N(C)C)cc1OC,"Amyloid-beta precursor protein, aggregated Aβ42 (APP, Homo sapiens, UniProt P05067)","fluorescence after Aβ binding, fluorescence spectroscopy",PBS,"4 µM, added: aggregated Aβ(1-42) 5 µM",,excitation maximum,444 nm
CCOC(=O)/C=C/CNCCCCN1c2ccccc2CCc2ccc(Cl)cc21,E3 ubiquitin-protein ligase NEDD4,"inhibitor, Ub-TR-FRET",,"33.33 µM, 1 h preincubation, HECT domain, added: ATP 2 mM",higher = more ubiquitination,ubiquitination TR-FRET signal AUC,21200 a.u. and 13100 a.u. and 12200 a.u. and 18400 a.u. and 11600 a.u. and 10100 a.u.
C/C=C/Cn1c(Cc2cc(OC)c(OC)c(OC)c2)nc2c(N)ncnc21,"Heat shock protein HSP 90-alpha, N-terminal domain (HSP90AA1, Homo sapiens, UniProt P07900)",isothermal titration calorimetry,,"298 K, N-terminal domain",,ΔG,-7.77 ± 0.06 kcal/mol
CCC1NC(=O)C(CCCNC(=N)N)NC(=O)C(C)(NC(=O)C(C)C)CCCCNC(=O)C(c2ccccc2)NC1=O (centres unmarked),"WD repeat-containing protein 5, with MLL4, RbBP5 (WDR5, Homo sapiens, UniProt P61964)",Ni-NTA pull-down,HeLa nuclear extract,"up to 25 µM, added: 10 µM His-MLL4",,MLL4-RbBP5 binding,no effect
CC(C)(Cn1cc(-c2ccc(N)nc2)nn1)c1c[nH]c2ccccc12,GLP1R,"cAMP accumulation, positive allosteric modulator, HTRF",,"0.6 µM, crude reaction product, added: GLP-1(9-36) at EC20",relative to: BETP,Emax,87.1%
CC(C)C[C@H](NC(=O)[C@@H]1CCCN1C(=O)[C@H](CCC(N)=O)NC(=O)c1ccccc1N)C(=O)N[C@@H](C)C(=O)N[C@@H](CC(N)=O)C(=O)N[C@@H](CCCCN)C(=O)N[C@H](C(=O)N[C@@H](CCC(N)=O)C(=O)NCCNc1ccc([N+](=O)[O-])cc1[N+](=O)[O-])C(C)C,"Mitochondrial intermediate peptidase (MIPEP, Homo sapiens, UniProt Q99797)","substrate, FRET peptide hydrolysis",,,,kcat,0.057 s⁻¹
COC(=O)C1(C)C=C(C(=O)Nc2cccc(C(=O)Nc3ccc(Nc4nccc(-c5cccnc5)n4)c(C)c3)c2)C(=O)C1 (centres unmarked),"MAPK8 (Homo sapiens, UniProt P45983, C116S)",surface plasmon resonance,,"100, 300, 1000 nM, 1:1 binding model",,koff,0.0353 s⁻¹
NC(=O)c1cn(-c2ccc(F)cc2)c2ccc(NCCc3cccnc3)cc2c1=O,Grm2,"calcium mobilization, negative allosteric modulator",,"30 µM, added: glutamate 100 µM",relative to: glutamate maximum,response,1.98 ± 0.67%
O=C(O)c1cc(C(=O)N[C@@H](Cc2cnc[nH]2)C(=O)O)cc([C@H]2CCN[C@@H]2C(=O)O)c1,"Grik2 (Rattus norvegicus, UniProt P42260)",radioligand binding,Sf9 membranes,"10 µM, homomeric receptor, added: [3H]kainate",,specific binding,66 ± 1%
O=[N+]([O-])c1cccc(/C=C/c2c[nH]c3ccc(F)cc23)c1,"Amyloid-beta precursor protein, Aβ1-40 (APP, Homo sapiens, UniProt P05067)","Aβ40 aggregation, thioflavin T fluorescence",,25 µM,,inhibition,31%
CC(=O)NCCCC[C@H](NC(C)=O)C(=O)Nc1ccc2c(C)cc(=O)oc2c1,"HDAC6 (Homo sapiens, UniProt Q9UBN7)","deacetylation, substrate",,"25 °C, added: 10 to 50 nM enzyme",,kcat,0.27 ± 0.04 s⁻¹
Cc1ccc(C(=O)Nc2ccc(Br)cc2C(=O)O)cc1S(=O)(=O)Nc1cccc(Cl)c1,RPA1 N-terminal domain,"binding, fluorescence polarisation competition",,added: FITC-ATRIP probe,,ligand efficiency,0.22
Cc1[nH]c2cc(Cl)cc(Cl)c2c1CCn1cc(COCCOCCO)nn1,GLP1R,"cAMP accumulation, positive allosteric modulator, HTRF",,"0.6 µM, purified compound, added: GLP-1(9-36) at EC20",relative to: BETP,Emax,101 ± 5%
CCOC(=O)/C=C/CNCCCN1c2ccccc2CCc2ccc([N+](=O)[O-])cc21,E3 ubiquitin-protein ligase NEDD4,"inhibitor, Ub-TR-FRET",,"0.04572 µM, 1 h preincubation, HECT domain, added: ATP 2 mM",higher = more ubiquitination,ubiquitination TR-FRET signal AUC,145000 a.u. and 148000 a.u. and 150000 a.u.
CC(=O)N1CCN(c2ccc(Nc3ncc4c(n3)N(C)C(=O)N(c3cc(NC(=O)c5ccc(CN6CCC(N(C)C)C6)c(C(F)(F)F)c5)ccc3C)C4)cn2)CC1 (centres unmarked),"FGFR4/Transcription factor ETV6 (Homo sapiens, UniProt P22455+P41212)",cell proliferation,Ba/F3 TEL-FGFR4,72 h,,GI50,6 nM
O=C1CCC(N2Cc3cc(-c4nc5ccccn5c4Nc4ccc5c(c4)OCCO5)ccc3C2=O)C(=O)N1 (centres unmarked),"WEE1/CRBN (Homo sapiens, UniProt P30291+Q96SW2)",TR-FRET,,,relative to: background,ternary complex formation,~2 fold
COc1ccc(NC(=O)CN2CCCN(S(=O)(=O)c3cc(C)ccc3C)CC2)c(OC)c1,GRM4,"calcium mobilization, positive allosteric modulator",CHO cells with Gqi5,added: glutamate,relative to: PHCCC maximal response,maximal response,32.5%
Cc1cccc(C2NC(=O)c3c(Cl)cccc3N2)c1 (racemic),"Protein polybromo-1, BD2 (PBRM1, Homo sapiens, UniProt Q86U86, Y262F)",ITC,,,relative to: wild-type BD2 over Y262F mutant,fold loss of affinity,8 fold
O=C(Nc1cccc(-c2cc[nH]n2)c1)C(NS(=O)(=O)c1cccs1)c1ccccc1 (centres unmarked),"Uracil nucleotide/cysteinyl leukotriene receptor, long isoform (GPR17, Homo sapiens, UniProt Q13304)","attenuation of MDL-mediated inhibition, antagonist",GLUTag,"10 µM, added: MDL 100 nM + forskolin 10 µM",,cAMP level,no effect
CC(=O)Nc1ncc(CN2CC[C@H](Oc3cccc(F)n3)C[C@@H]2C)s1 [isotope labelled],"Protein O-GlcNAcase (OGA, Homo sapiens, UniProt O60502)",saturation binding,human cortex homogenate,radiolabelled compound,,Bmax,16.5 ± 1 nM
COC(=O)[C@@]1(C)C=C(C(=O)Nc2cccc(C(=O)NC34CC(Nc5nccc(-c6cccnc6)n5)(C3)C4)c2)C(=O)CC1,MAPK8,"kinase activity, inhibitor",,"0.02032 µM, unit not given, added: 10 mM GSH",relative to: DMSO,remaining activity,0.542
NC(=O)c1cn(-c2ccc(F)cc2)c2ccc(OCc3ccncc3)cc2c1=O,Grm2,"calcium mobilization, negative allosteric modulator",,"30 µM, added: glutamate 100 µM",relative to: glutamate maximum,response,1.63 ± 0.33%

# For quick reference, copied from above:
SMILES,target,test,system,conditions,scale,quantity,value
CCOC(=O)/C=C/CNCCCN1c2ccccc2CCc2ccc([N+](=O)[O-])cc21,E3 ubiquitin-protein ligase NEDD4,"inhibitor, Ub-TR-FRET",,"0.04572 µM, 1 h preincubation, HECT domain, added: ATP 2 mM",higher = more ubiquitination,ubiquitination TR-FRET signal AUC,145000 a.u. and 148000 a.u. and 150000 a.u.
CC(=O)NCCCC[C@H](NC(C)=O)C(=O)Nc1ccc2c(C)cc(=O)oc2c1,"HDAC6 (Homo sapiens, UniProt Q9UBN7)","deacetylation, substrate",,"25 °C, added: 10 to 50 nM enzyme",,kcat,0.27 ± 0.04 s⁻¹
Nc1nc(SCc2ccc(Cl)cc2)nn1S(=O)(=O)c1ccc2c(c1)CCC2,LYPLAL1,"activator, gel-based ABPP",purified protein,,relative to: DMSO,FP-rhodamine labelling,2.2 fold
COc1ccc(NC(=O)CN2CCCN(S(=O)(=O)c3cc(C)ccc3C)CC2)c(OC)c1,GRM4,"calcium mobilization, positive allosteric modulator",CHO cells with Gqi5,added: glutamate,relative to: PHCCC maximal response,maximal response,32.5%
